Assay results gathered from unrelated publications.
A part holds a random share of what one study measured. Substitutions count along the parent as printed.

Set 1 — technique: RNA Bind-n-Seq; molecule type: RNA; sample: in vitro; tested at: 200 nM; notes: whole 134-nt RNA, ends assumed; together with: 150 mM LiCl; baseline: input library; reading: higher = stronger binding; each molecule: 7-deaza-guanosine replaces G
Target: Fragile X messenger ribonucleoprotein 1, C-terminal low-complexity region (Fmr1, Mus musculus, UniProt P35922)
Constant ends, left off below: GGGAGUUCUACAGUCCGACGAUC … UGGAAUUCUCGGGUGUCAAGG
Strand	log2 enrichment
GCAGGAAGUAAAAACAAAUGGAAAUGCUUCGGAUAGUGGCAGGGGUGGGGUUUGCUAAGGAAAGGGUGGGAUGGGAGUGGGUAAAGAGUU	1.19
AGUCCUGUGCUACACAUCGUAUGUACCGAAUCAAAUUUUUUUAAAUUUAAAUUUAAAAAAGUAUUAUGUUACGCCGUUCGGAUCUGCACU	-3.17
GCCUGGCGCUGGCCAACAAUAGCACCCUCACCAUUGGCACCAUCGAUGAGAUCCAGAAGCUGCACAUUCGCACAGUUCCCCUCUAUGAGU	0.763
UGCGGGCGGCUGAGACGCCGCCUGCCUGGCACCUAGGAGCGCAGCGGAGCCCCGACACCGCCGCCGCCGCCAUGGAGUCCGAGACCGAAC	0.0503
CUUUGGUUGACAGGAAGUUCCUUUUCCAGGCAGGUCCCGUUGCCACCUCCUGCUCACUCAGUCCCGGGCUCUGCCGAGUGGUCCUGGGAA	1.68
CCUGUGCUACACAUCGUAUGUACCGAAUCGGAAAAAAAGGGGAAAAAAAGGAAAAAAAGGAAAGUAUUAUGUUACGCCGUUCGGAUCUGC	-0.628
UAACUUUAGAGGAGGAUCUGAUGGAUAUGGCAGUGGACGUGGAUUUGGGGAUGGCUAUAAUGUGUAUGGAGGAGGACCUGGAGGUGGCAA	1.11

Set 2 — technique: RNA Bind-n-Seq; molecule type: RNA; sample: in vitro; tested at: 365 nM; baseline: no-protein control; reading: higher = stronger binding
Target: RNA binding protein fox-1 homolog 2, RRM domain, GST-SBP tag (RBFOX2, Homo sapiens, UniProt O43251-10, residues 100-194)
Notes: natural RNA segment, single round, ends assumed
Constant ends, left off below: GGGAGUUCUACAGUCCGACGAUC … UGGAAUUCUCGGGUGCCAA
Residues (chain): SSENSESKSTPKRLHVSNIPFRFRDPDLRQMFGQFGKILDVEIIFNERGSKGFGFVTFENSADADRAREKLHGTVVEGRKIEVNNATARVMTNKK
Strand	RBNS enrichment (R)
GUCCCUCUCUCUCCAACAUCUUGAAGUUUGCAAUUUAGACAGCUCUUUGUUUUCUAAUGCAAUAUGUGCCUCUUCCCCUCGCUGAACCUCUAAGACAUAUGUAUUUCACA	0.549
CCCCUCAAAGCCUUCAGCCACCUCCGCCACUCAGGAACUGGAUAGACUGAUGGCCUCGCUCUCUGACUUCCGUGUUCAGAACCAUGUUCCAGCCUCAGGGCCACCUCAGC	0.144
GGUGGGCAUCUCGAUGCUUCUUUGCCUUAAUGAUGGCCACAUCUGGGCUGCUCUGCACCCACGGGAGAGGCUGGCCCAGCUGCAGACUGCUUAGGGACUUCUGUGUCCAU	0.256
UUCAUUUCAUUUAGGGACUCUGUGGGGGGAGGGGCAGGCAUUGCAUUCUCACAUGACAUUUCAAUUCAUCUCUACCAAUGAAGAGCGUCCUCCCUGUUGGGAGCAAUCUG	0.638
GCUGAGCAAGUCUGUAAACUGAUUCUGGGAGAAACCAAGCUGCUGGCCAUAGGGUGUCCUUGGGUACAUCCAGGAGUCUUCAUUGCUUCUGUUAUUACCCCGUCUCCUCU	0.278
GUAUCUGUGUGUGCCAAUGCUGUUACCACAUCCUGGUGAAGCUAAAAAAUAAAAUUUAAUUUGGACCAAAAGAAUGUUGUUAUUCAUUUGAAAUCCGCGCUGCUUGUCUG	1.13
UUGGAAAAAACCCUCAAACUAAUAUUCUUGUCUGUUCCAGUCUUAUAAAUAAAACUUAUAAUGCAUGUAUUGUUUUGUUGGUGAGUAUUCAUAGCACUGUUUCGAGAUAA	3.03
CUAAGUAGCUCUUCCCGCUGUGUCCGUGUGCACACUGUAGCCCCACAGCCCCGUAGAACCUGCAGUGUCCUGACUAAAGCUGCCGACUUGCUCUCAUUUGCAGUUUCUGU	0.763
AUAGAGGAAGUGGAUAAAGGAGACACCUCCCUUGCUGUGUGCUCUUUGAAAGUAAUUGACAGAAAACUACAAACACGUAGGAUGCCCUGCGCCUCAGCAGCACCCACCCC	0.445
UACUUUAACGUGUAUAGAUAUCUUGUAAACUUGUAUUGUGGAUGUGUAAAUAAUAUGUACUUUGGGUUUUUAACACCGCAUGUAAAGUCAAAAUAAAAUAUCCAAGUCAU	26.1
UGUGAAAACAUUACAUACAUGUAUAUAUUUAGACAUGAGCUGCUGCUAUAUAUUGAAUGGGCCCUUUAGUUUUCUCUUAGUUCUGACCUGUAUAUAUUGCUUUAAUAGAG	1.62
GCGAAGAGAUCCCUGAAAAGCGGGAGAGGCUGUGUCUGCAGUGUGCAGACUGUGACCCUCGUGUUUGAGGAAAGCUGGUGUUUUCUGUGUUGGAACGCCACGGUUGCCAG	0.329

Set 3 — technique: competition protein-binding microarray; molecule type: double-stranded DNA, one strand shown; sample: in vitro; tested at: 2 µM; together with: Cbf1 competitor, 0.05 µM; reading: higher = stronger binding; constant ends, left off below: … GTCTTGATTCGCTTGACGCTGCTG
Target: Phosphate system positive regulatory protein PHO4, full length, GST-tagged (PHO4, Saccharomyces cerevisiae, UniProt P07270, residues 1-312)
Notes: whole 60-bp probe, lowest competitor level
Target sequence (chain): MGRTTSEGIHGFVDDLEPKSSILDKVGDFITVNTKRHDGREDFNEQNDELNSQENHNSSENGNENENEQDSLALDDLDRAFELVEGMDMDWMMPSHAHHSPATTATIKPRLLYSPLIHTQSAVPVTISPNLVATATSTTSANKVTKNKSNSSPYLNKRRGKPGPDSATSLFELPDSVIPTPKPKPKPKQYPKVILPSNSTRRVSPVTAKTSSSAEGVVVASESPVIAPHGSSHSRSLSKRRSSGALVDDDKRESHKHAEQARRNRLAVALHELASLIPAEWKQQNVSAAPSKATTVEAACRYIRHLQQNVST
Strand	fluorescence intensity [a.u.]
AGTAGCTAAGCGAGTCACGGGACTAAAAGGTAAAAA	5570
AATGTAGCTCGTAAGCGCCTGATCCAGTAAGCCAAA	2690
CTGTAGAAGCTAGTACTTGTGATGAACCATTGGCAG	3420
CATACCCAACCTTGAAACGTGGGTGAAGATATTTGT	13200
CTTTCCCGATCTTGTAGGGTGGGTGTAGCACATTTG	4620
TGCTTTTTTCCAAAACACGTGGCAATGACTTTTGAA	17800
TGCGCAACAACTTGATTCGTGGGTGTATGTCTAGAA	5690
GTCTTGTCTCATTGGAAAGTGGGTGTCCCCACTTCA	4590
CTTTCCCGATCTTTTCACGTGCTGTTAGCACATTTG	12500
CATACCCAACCTTTTCACGTGTGCTAAGATATTTGT	15600

Set 4 — technique: protein binding microarray; molecule type: double-stranded DNA, one strand shown; sample: in vitro; tested at: not given; baseline: not given; reading: higher = stronger binding
Target: Histone acetyltransferase KAT6A, winged helix 1, GST fusion (KAT6A, Homo sapiens, UniProt Q92794, residues 1-85)
Notes: 8-mer, flanks averaged, mean of 2 arrays, mostly near background
Construct (chain): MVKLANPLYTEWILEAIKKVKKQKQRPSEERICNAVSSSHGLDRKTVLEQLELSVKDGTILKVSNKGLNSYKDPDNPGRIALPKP
Strand	E-score
CAGGTACG	0.0708
GATTCCCA	-0.25
CCGCTACA	0.262
AAAAACAA	-0.0207
GAGGCGGA	0.186
GATACATA	-0.0548
GCCCTCTA	0.00615
GGAGCGGA	0.223
GGAACACA	-0.146
CCCGCCCA	0.179
GGCCAGCA	0.0719
ATCAGCTA	-0.166
ATCAACGG	0.0355
ACACCACC	-0.138

Set 5 — technique: protein-binding microarray; molecule type: double-stranded DNA, one strand shown; sample: in vitro; tested at: 250 nM; notes: 60-bp whole probe; together with: salmon DNA 0.4 mg/ml; baseline: random background probes; reading: higher = stronger binding; constant ends, left off below: GCCTAGCAC … GTCTTGATTCGCTTGACGCTGCTG
Target: Interferon regulatory factor 7, full length, phosphomimetic (IRF7, Homo sapiens, UniProt Q92985, residues 1-503, S101K/S471D/S472D/S475D/S476D/S477D/S483D/S484D/S487D)
UniProt Q92985, sequence (whole entry, unmodified, looked up): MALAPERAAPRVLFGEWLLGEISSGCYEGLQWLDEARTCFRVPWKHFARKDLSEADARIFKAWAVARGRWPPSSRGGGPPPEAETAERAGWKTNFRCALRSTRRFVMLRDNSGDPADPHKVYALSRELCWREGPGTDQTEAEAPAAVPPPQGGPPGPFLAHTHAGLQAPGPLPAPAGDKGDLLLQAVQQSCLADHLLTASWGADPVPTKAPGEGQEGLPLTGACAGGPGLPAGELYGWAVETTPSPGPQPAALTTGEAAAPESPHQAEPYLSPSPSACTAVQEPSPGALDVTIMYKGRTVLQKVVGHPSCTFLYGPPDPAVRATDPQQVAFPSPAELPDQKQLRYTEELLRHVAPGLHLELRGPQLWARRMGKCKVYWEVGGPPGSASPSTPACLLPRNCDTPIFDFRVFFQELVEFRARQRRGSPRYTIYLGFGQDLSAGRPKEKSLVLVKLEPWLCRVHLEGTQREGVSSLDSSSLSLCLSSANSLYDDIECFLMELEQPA
Strand	log fluorescence [z-score]
GGCGGTATCGGACTGGGGACGTGCTAG	-0.442
TTAGGTCTCAGACTGGATTAGTGCTAG	-0.216
CTTGGCAAGATGAGGAAGATGTGCTAG	-0.753
TTTTCTCTTATTCTAACAGCGTGCTAG	2.66
TAACTAATATTAAATATGTAGTGCTAG	0.146
TTAGGACTGCGGTTTCGGTTAGTGCTA	6.97
ATAACCTTGAACTTCGGCCTGTGCTAG	-0.264
TCAACTCTGAACCTTCAGACTGTGCTA	-0.439
TTACATTTATATCTTTGCTTGTGCTAG	0.229
CTCTTTCTCTGCTACCCTTTGGTGCTA	2.51
GACGGTTTCGGGACTGGAGACGTGCTA	4.1
TTAGGTCTCCTCTTCCTTTAGTGCTAG	0.335
TGAAATTTTAATAACACAGAGTGCTAG	-0.283
TGTACTTTCTATCTCTGTTTGTGCTAG	1.91
AGTCTCTGCAGGGAGAGAGCGTGCTAG	-0.474

Set 6 — technique: DHFR PCA, deep sequencing; sample: yeast; together with: (+)-ABA 58 µM; baseline: wild-type fitted maximum; reading: higher = stronger binding
Target: ABI1, truncated, D143A, DHFR fusion (Arabidopsis thaliana)
Notes: methotrexate growth selection, single substitutions
Parent: PYL1, truncated, DHFR fusion (Arabidopsis thaliana); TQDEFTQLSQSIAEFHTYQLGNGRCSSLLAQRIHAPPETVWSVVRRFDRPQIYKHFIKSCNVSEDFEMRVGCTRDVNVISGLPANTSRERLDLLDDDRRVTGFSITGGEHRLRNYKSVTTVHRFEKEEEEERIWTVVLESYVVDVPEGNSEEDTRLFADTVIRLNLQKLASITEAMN
Change	relative binding score [%]
S150C	78.3
T154C	80.8
N85G	79.3
E139P	-2.27
T86N	85.2
R45T	7.9
V145H	1.61
S104M	26.3
D96Y	21
H110T	37.4
T39V	91
F56R	-5.36
V136Q	34.4
